Results collected from several papers.
Every numbered part comes from another study and shows a few of its results, in no order.

Sample 1
Target: Histone acetyltransferase KAT6A, winged helix 1, GST fusion (KAT6A, Homo sapiens, UniProt Q92794, residues 1-85)
Technique: protein binding microarray
Molecule type: double-stranded DNA, one strand shown
Matrix: in vitro
Concentration: not given
Setting: 8-mer, flanks averaged, mean of 2 arrays, mostly near background
Reference: not given
Direction: higher = stronger binding
Target sequence (chain): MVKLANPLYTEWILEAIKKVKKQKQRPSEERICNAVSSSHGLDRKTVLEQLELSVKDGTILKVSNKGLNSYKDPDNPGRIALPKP
`CCGCCGAC` gave an E-score of 0.408.
`CGGACCCG` has an E-score of 0.379.
For `AAGAAACT`, the E-score was -0.187.
With `ACACGTGT` the E-score was -0.35.

Sample 2
Target: RNA binding protein fox-1 homolog 2, RRM domain, GST-SBP tag (RBFOX2, Homo sapiens, UniProt O43251-10, residues 100-194)
Technique: RNA Bind-n-Seq
Molecule type: RNA
Matrix: in vitro
Concentration: 365 nM
Setting: natural RNA segment, single round, ends assumed
Reference: no-protein control
Direction: higher = stronger binding
Construct (chain): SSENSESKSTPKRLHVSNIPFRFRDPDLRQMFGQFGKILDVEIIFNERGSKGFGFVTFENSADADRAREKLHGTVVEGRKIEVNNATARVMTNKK
`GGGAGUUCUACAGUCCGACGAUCCACUGACUUAAAAAUUUUAAUUUCUAUAGUUAAGAUUUACAACAUAAUAUAGAGUGAAAGUUAACAUACUAACAUUUCUCCUUUGGAGGAAGUUUUAAUCCACUUCAGGAUGGAAUUCUCGGGUGCCAA`: “RBNS enrichment (R)” 0.426.
Under “RBNS enrichment (R)”, `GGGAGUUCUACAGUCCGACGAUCCUGAAGAUUAGUCUUUUAAUUUUAGACCAUUAUAUCUGCUGAGCACAGGAUUCUUAUCAUUUGUAAAUCUAAAACCGUCUGUGAACGCAUUUCUAUGCUUCUUCCUUUAUUGGAAUUCUCGGGUGCCAA` is recorded as 0.356.
Under “RBNS enrichment (R)”, `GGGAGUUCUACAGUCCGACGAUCUCUAGGGAUCCAGUUGUGCAGUAGAGUUCAGACUUCUCAUCCAAUCUUAUAUUGUAGGCAUUUCUCAAGUGUUUUAGAUAUUAAUAACUAACAUUGGGAUUUUACUUUGCUGGAAUUCUCGGGUGCCAA` is recorded as 0.294.
`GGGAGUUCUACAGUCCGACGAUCUCAUGUGACCUGUUUGGCCCCUAACUGUCCCUUCUUUUCACUGCUUCUGUCUGACACCAUCUCCCUUUCGGCCUGAAGGUUUCAGAGAGGGUGCUCUGGGCUGGAGGGAGUGGAAUUCUCGGGUGCCAA`: “RBNS enrichment (R)” 0.594.
Under “RBNS enrichment (R)”, `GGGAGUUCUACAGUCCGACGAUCCCUCUGGUUUCUAAUACUGGCAGGACCAACACACAUACUUUAGUGGGAAUAUAAUCUGUUUAGACGAUAAUAGAGGGAAAUGCCAUAAUUAACAAAUCUCCCUUCACUCAUGGAAUUCUCGGGUGCCAA` is recorded as 0.438.
`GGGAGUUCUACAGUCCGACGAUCUUUUUUGUUCAUUUUCUUCUACCAAGUAGAGGUUUAUGCCCUCAGAACUAAACUAGUAAAAAUAUCUGAACAAAAAACCUUUCGUUGUUGGCAUAAAAAUGUGAUACACUUGGAAUUCUCGGGUGCCAA` — result for “RBNS enrichment (R)”: 0.382.
Under “RBNS enrichment (R)”, `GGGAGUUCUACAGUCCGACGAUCUAGAUGUAGAUUCAUCUUUUAACGUUUCUUCAAAUUUGUUUCUGUCAGGCUUUGUGUUAUUUUAAAUGGUUUUUUAAAAUUUUCUUCUAUGUUUUCAAUUACCUAAAGACUGGAAUUCUCGGGUGCCAA` is recorded as 0.615.

Sample 3
Target: Centromere-binding protein 1, full length, His-tagged (CBF1, Saccharomyces cerevisiae, UniProt P17106, residues 1-351)
UniProt P17106, sequence (whole entry, looked up): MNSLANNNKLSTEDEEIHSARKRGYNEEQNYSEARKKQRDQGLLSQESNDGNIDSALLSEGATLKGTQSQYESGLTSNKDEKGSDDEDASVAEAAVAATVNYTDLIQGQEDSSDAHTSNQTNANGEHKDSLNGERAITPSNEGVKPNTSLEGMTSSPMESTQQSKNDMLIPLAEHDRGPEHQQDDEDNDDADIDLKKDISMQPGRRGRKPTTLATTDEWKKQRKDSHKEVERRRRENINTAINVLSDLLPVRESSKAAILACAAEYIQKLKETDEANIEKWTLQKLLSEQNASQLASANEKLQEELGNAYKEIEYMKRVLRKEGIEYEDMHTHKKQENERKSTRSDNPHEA
Technique: competition protein-binding microarray
Molecule type: double-stranded DNA, one strand shown
Matrix: in vitro
Concentration: 2 µM
Setting: whole 60-bp probe, lowest competitor level
Added: Pho4 competitor, 0.05 µM
Direction: higher = stronger binding
The fluorescence intensity of `CGGGGTTAAGTTTGCTCCGTGGGTGGCTTGCAGCAGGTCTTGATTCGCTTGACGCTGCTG` is reported as 59.2 a.u.
`AGAATTTGTCAACAACATGTGGGCTTGGGATAAGCCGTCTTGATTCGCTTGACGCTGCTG` has a fluorescence intensity of 88.5 a.u.
For `AGAACCGTTAAATTCCCCGTGCTTTCTCGCATTAAGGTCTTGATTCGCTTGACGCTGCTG`, the fluorescence intensity was 114 a.u.
The fluorescence intensity of `CTTCTGTAAATTTGCGTCGTGGGTGGACGCGCCCCGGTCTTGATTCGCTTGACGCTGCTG` is reported as 81.7 a.u.
`CATACCCAACCTTGCGGAGTGGGTGAAGATATTTGTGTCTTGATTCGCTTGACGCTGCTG` has a fluorescence intensity of 67.1 a.u.
`CGGGGTTAAGTTTGTCACTTGACTTGCTTGCAGCAGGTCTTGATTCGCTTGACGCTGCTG` has a fluorescence intensity of 123 a.u.

Mixed results
With `PhoQ, residues 284 288 289 292 302 303 SASVAL` the fold induction was 3.87 (PhoP, residues 12 14 15 18 19 YHFSH (Escherichia coli, UniProt P23836); Sort-seq, item: YFP reporter; E. coli; PhoQ-PhoP variant library, added: 10 µM Mg2+; reference: high Mg2+ state, higher = stronger signaling).

Repeated from above (sample 3):
`CATACCCAACCTTGCGGAGTGGGTGAAGATATTTGTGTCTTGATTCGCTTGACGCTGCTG` has a fluorescence intensity of 67.1 a.u.
`CGGGGTTAAGTTTGTCACTTGACTTGCTTGCAGCAGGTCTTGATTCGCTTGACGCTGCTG` has a fluorescence intensity of 123 a.u.
